Measured values from different studies.
Parts stem from different laboratories: compare values within a part only.

Block 1
Target: Ras GTPase-activating protein-binding protein 1, full length (G3BP1, Homo sapiens, UniProt Q13283)
Sequence of UniProt Q13283 (whole entry, looked up): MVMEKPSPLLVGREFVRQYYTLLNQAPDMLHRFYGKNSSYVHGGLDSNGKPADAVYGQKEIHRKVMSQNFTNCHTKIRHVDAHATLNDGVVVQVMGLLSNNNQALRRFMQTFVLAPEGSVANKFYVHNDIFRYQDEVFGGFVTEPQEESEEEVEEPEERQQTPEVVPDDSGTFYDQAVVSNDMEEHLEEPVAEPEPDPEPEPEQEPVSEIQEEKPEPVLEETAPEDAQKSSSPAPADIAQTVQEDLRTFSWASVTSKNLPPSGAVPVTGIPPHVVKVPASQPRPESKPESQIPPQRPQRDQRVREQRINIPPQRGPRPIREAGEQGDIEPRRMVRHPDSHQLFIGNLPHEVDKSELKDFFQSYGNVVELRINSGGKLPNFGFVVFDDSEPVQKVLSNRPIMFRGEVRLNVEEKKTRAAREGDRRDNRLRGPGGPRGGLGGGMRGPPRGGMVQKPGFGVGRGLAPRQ
Method: RNA Bind-n-Seq
Form: RNA
Medium: in vitro
Tested at: 200 nM
Setting: whole 134-nt RNA, ends assumed
Added: 150 mM KCl
Baseline: input library
Direction: higher = stronger binding
With `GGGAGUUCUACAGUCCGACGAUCGUCCUGUGCUACACAUCGUAUGUACCGAAUCGGGGAAAAGGGGAAAAGGGGAAAAGGGGAAAGUAUUAUGUUACGCCGUUCGGAUCUGCAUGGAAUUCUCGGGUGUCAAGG` the log2 enrichment was 0.468.
`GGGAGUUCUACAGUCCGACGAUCUCCUGUGCUACACAUCGUAUGUACCGAAUCAAACCCCCCCAAACCCCCCCAAACCCAAAAAAGUAUUAUGUUACGCCGUUCGGAUCUGCAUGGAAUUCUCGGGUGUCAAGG` has a log2 enrichment of 0.367.
With `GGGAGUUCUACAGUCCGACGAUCCUCAAGUCCUGUGCUACACAUCGUAUGUACCGAAUCGGAAAAAGGUUUGGAGGAAAGUAUUAUGUUACGCCGUUCGGAUCUGCACUUCCAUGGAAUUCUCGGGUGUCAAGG` the log2 enrichment was -0.844.
The log2 enrichment of `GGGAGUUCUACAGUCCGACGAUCAAGUCCUGUGCUACACAUCGUAUGUACCGAAUCGGGUUUGGGUUUGGGGUUUGGGGAAAGUAUUAUGUUACGCCGUUCGGAUCUGCACUUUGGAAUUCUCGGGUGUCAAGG` is reported as 0.467.
With `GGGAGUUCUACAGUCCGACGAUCUGUGCUACACAUCGUAUGUACCGAAUCGGGGAAAAAAAGGGGAAAAAAAGGGGAAAAAAAGGAAAGUAUUAUGUUACGCCGUUCGGAUCUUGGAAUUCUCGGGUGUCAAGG` the log2 enrichment was -0.406.
`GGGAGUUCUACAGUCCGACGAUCUCCCGGGCGCUAGCCCACCUCCCACCCGCCUCUUGGCUCCUCUCCUCUAGGCCGUCGCUUUCGGGUUCUCUCAUCGCUUCGUCGUUCGCCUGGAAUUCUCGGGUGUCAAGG` gave a log2 enrichment of 0.738.
With `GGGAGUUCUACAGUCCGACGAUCUUCAAGGCCAUGAAGGACCUGUUUAUGCGGUGCAUGCUGUUUACCAGAGGAGGACAUCAGAUCCUGCAUUAUGUACACUGAUCGUUUCUGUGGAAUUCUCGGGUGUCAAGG` the log2 enrichment was -0.858.
The log2 enrichment of `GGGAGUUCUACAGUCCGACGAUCUAACAUUAGAGGAGGAUCUGAUGGAUAUGGCAGUGGACGUGGAUUUGGGGAUGGCUAUAAUGGGUAUGGAGGAGGACCUGGAGGUGGCAAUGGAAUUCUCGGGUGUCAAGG` is reported as 0.593.
`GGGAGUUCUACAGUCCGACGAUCCAAGUCCUGUGCUACACAUCGUAUGUACCGAAUCGGGGCCCGGCCCGGCCCGGGGAAAGUAUUAUGUUACGCCGUUCGGAUCUGCACUUCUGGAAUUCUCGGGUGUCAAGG` gave a log2 enrichment of -0.735.

Block 2
Target: RING finger protein unkempt homolog, zinc fingers 1-6, GST-SBP tag (UNK, Homo sapiens, UniProt Q9C0B0, residues 30-357)
Sequence of UniProt Q9C0B0 (30-357, looked up): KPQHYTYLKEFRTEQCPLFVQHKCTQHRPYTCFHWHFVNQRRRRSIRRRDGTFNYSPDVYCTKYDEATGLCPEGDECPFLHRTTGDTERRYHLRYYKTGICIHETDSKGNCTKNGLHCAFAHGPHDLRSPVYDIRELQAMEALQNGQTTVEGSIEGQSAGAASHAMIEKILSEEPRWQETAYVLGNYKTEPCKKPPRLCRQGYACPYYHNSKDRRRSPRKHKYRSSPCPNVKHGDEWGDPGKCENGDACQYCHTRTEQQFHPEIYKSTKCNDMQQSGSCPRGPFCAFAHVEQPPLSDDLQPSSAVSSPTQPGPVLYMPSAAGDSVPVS
Method: RNA Bind-n-Seq
Form: RNA
Medium: in vitro
Tested at: not given
Setting: RNA with constant flanks, human and mouse sites, ends assumed
Baseline: input RNA pool
Direction: higher = stronger binding
`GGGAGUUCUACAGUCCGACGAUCGAUUCCCUUGGAAUUCCAUUUUUGGAAACCAGUGCUAAGAACGCAACGAAUGUAGAACAGUCUUUCAUGACGAUGGCAGCUGAGAUUAAAAAGCGAAUGGGUCCUGGAGCUACAGCUGGUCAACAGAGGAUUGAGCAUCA` has a bound/input enrichment of 0.146 ratio.
`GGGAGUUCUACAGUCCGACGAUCAGUUAUGACGGUAUAAAGCUUGAGCCUGAAAAUCCCCCACCAUAUGAAGAAGCCAUGAGUGUAGCACUAAAAACAUCGGACUCAAAGGAAGAAAUUAAAGAGCCUGAAAGUUUUAAUGCACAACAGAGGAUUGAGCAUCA` gave a bound/input enrichment of 0.284 ratio.
With `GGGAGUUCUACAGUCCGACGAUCGCCAGCCCUGCGCCUCGCGCCGUCGCGCAUGCGUCCUGGUCUUUCUCUAGAGUUGUAUAUAUAGAACAUCCUGGAGUCCACCAUGAACGGACAGUUGGAUCUAAGUGGGAAGCUAAUCAUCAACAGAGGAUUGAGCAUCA` the bound/input enrichment was 0.137 ratio.
With `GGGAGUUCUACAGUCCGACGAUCAAGACGCUUCUAUCUCUGGGAAAAGAGCAGCAGUUGGCCAUGUUCUUCUGUUUUCUAUUCCUGUCCUAAAUCAAAGAGCAUGGUUCUCAGGAAACCAGUUCCCCGGUCAAAAAAUCUUGUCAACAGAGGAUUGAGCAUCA` the bound/input enrichment was 0.186 ratio.
`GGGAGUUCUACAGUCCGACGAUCGUUAAUAUGGAGUCAGUUUUUGACUAUAGUAUAAAUUCUGUACAUGAUGAGAAAAUGGAAGAGCAAACUGAAAUUCUUCAAAAUGGCUUCAAUCCUGAAGAAGAUAAAUGCAAUAACUGUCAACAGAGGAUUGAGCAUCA` gave a bound/input enrichment of 0.292 ratio.
The bound/input enrichment of `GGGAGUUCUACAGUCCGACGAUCUAAUAUAUUUUUCCUACUUGUGGGAAAAGUAUUAUAAGUUUGGUUAAAUUGUCAUGUUUAUAGUUUUUCCAAGUACAUUUGUAACUACAGCAGGCCUUCUUCGUACUGCUGCUGUUGGACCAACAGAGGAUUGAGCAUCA` is reported as 0.422 ratio.
For `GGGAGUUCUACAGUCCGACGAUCGCUUCCCUUUUUCUCCUCACAAGGAGGUGAGGCUGGGACCUCCGGGCCAGCUUCUCACCUCAUAGGGUGUACCUUUCCCGGCUCCAGCAGCCAAUGUGCUUCGGAGCCACUCUCUGCAGACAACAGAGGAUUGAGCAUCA`, the bound/input enrichment was 0.326 ratio.
`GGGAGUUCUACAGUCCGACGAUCCCGCUGCCUUCCCCAGCCGCCGCCAUGAAGCUGACCGACAGCGUGUUGCGGAGCUUCCGCGUCGCUAAGGUGUUCCGCGAAAACUCGGACAAGAUUAACUGCUUCGAUUUCAGCCCCAACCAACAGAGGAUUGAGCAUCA` gave a bound/input enrichment of 0.0763 ratio.

Block 3
Target: Sal-like protein 4, full length isoform B (SALL4, Homo sapiens, UniProt Q9UJQ4-2, residues 1-616)
Method: universal PBM
Form: double-stranded DNA, one strand shown
Medium: in vitro
Tested at: not given
Setting: 8-mer, flanks averaged, mean of replicates
Direction: higher = stronger binding
For `ACCAGGTA`, the E-score was -0.134.
With `CCGCGAAG` the E-score was -0.27.
The E-score of `GGTTTACA` is reported as 0.203.
`CGAACTTA` gave an E-score of -0.0717.
`CCCATCTA` has an E-score of 0.0689.
`CTCAATCC` gave an E-score of -0.0595.
`AGTGCAGC` has an E-score of -0.106.
With `AGCTACGA` the E-score was -0.0491.
`GATGGTTA` gave an E-score of 0.0555.
`ACGGCTCA` has an E-score of -0.167.
The E-score of `CACGTCCG` is reported as -0.227.
For `CTTTCGTA`, the E-score was 0.112.
`GACTTTTA` gave an E-score of 0.024.
The E-score of `GTTCTACA` is reported as 0.0449.
`CATACTCC` has an E-score of 0.107.
With `CCTTTCTA` the E-score was 0.104.
`ACCGGCGT` gave an E-score of -0.258.
`CCGCGTCC` gave an E-score of -0.196.
`GAGTATTA` gave an E-score of 0.289.
The E-score of `AATGCGCG` is reported as -0.00802.
`ATTCACGC` gave an E-score of -0.0284.
The E-score of `CCCAAGGG` is reported as -0.338.
For `GTTATCTA`, the E-score was 0.196.
`AGATCCCC` has an E-score of -0.146.
`GATTGCAC` gave an E-score of 0.137.

Block 4
Target: RNA binding protein fox-1 homolog 2, RRM domain, GST-SBP tag (RBFOX2, Homo sapiens, UniProt O43251-10, residues 100-194)
Method: RNA Bind-n-Seq
Form: RNA
Medium: in vitro
Tested at: 365 nM
Setting: natural RNA segment, single round, ends assumed
Baseline: no-protein control
Direction: higher = stronger binding
Residues (chain): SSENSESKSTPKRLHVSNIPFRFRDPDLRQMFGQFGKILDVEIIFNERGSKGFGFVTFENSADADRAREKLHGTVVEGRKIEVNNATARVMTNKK
For `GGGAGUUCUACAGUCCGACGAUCAAAAGGCUCAGACCGACCGAUGGCAAGAUCUGCAAGCGUCUCAAAGCCCAGGCAGAAAAGGACUUUUCUUUUAUUGGAAGAAGUAAACAUGGCUAGAAAGAACCACGUUCUGGAAUUCUCGGGUGCCAA`, “RBNS enrichment (R)” read 0.425.
`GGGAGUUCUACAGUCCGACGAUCUGCGCAGAACCCACCCCACCCCCCAGUGCAGACUUCGGGGUCUCCACCCCAGGCCAGCAGCGCCCACUGGGCUACAGCAAGCCAACAGGUCACAGAAGCCAACGAGGGGAUGGAAUUCUCGGGUGCCAA` — result for “RBNS enrichment (R)”: 0.204.
Under “RBNS enrichment (R)”, `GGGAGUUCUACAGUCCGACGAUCUUUCUCUUUGACCUAGAGGUUUCACAUCAUAGCAAGGAGGGAAAAGUCUCCCCAUCUCCUUACAACUGUGUGCUAAGUAAGUAACUUGGCCAAGGGUAGUUUUCAGCUCAUGGAAUUCUCGGGUGCCAA` is recorded as 0.464.
Under “RBNS enrichment (R)”, `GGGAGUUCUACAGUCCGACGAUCUAACAGAACAGUUCUAAUCCUGCCACGUGUUAUCAUUAUAGAUUUUAUAGUUGCCUUUCUAACUACUUAGCACAGUUUGAGAAUACGUUAAUUGCUAUUUACUAUUUAAAUGGAAUUCUCGGGUGCCAA` is recorded as 0.829.
`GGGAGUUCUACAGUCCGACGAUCCUCUGGUUCCCUCCUUGCCUUCUGCUUCUCUUCCAUCUGGUUGACAACACCUAAGGUGUUGUGACUGUUCCCCCACCCAGUGCAUGUUCUUUCCCUCCAUUUCUGUGGCUUGGAAUUCUCGGGUGCCAA`: “RBNS enrichment (R)” 19.1.
`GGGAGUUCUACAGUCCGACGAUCAAAAACUAGCUCAUUAAAGAUGAAAUAGACCAGCUCUCUUCAGUGAAGAGGACAAAUAGUUUAUUUAAAGCAUUUGUUCCAAUAAAAUAAAUAGAGGGAAACUUGGAUGCUGGAAUUCUCGGGUGCCAA`: “RBNS enrichment (R)” 0.296.
`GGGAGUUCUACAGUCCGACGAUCAGCUGGUAGUUUGACCUCCGUUGGUGCAAUGCCAGAGAUGGGAUUGUCAGCCACCACACUGCCACCACCCUGCACACAGUCUGGGUCCCUCCGAGAGAAGCACGCCAACCUGGAAUUCUCGGGUGCCAA` — result for “RBNS enrichment (R)”: 9.13.
`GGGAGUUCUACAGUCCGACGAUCAGGUGGCAUCUGACUGCGGCUCAUACAGGUCACCCUGAAGGGCCACGUGCUUUUAGCAGUUGGCUGGAAUGUGUUCACUAGGUUCCGUUAUGUUUGGUAAUAUCAUCUUGUGGAAUUCUCGGGUGCCAA` — result for “RBNS enrichment (R)”: 0.689.

Repeated from above (block 2):
For `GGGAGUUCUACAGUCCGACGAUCGCUUCCCUUUUUCUCCUCACAAGGAGGUGAGGCUGGGACCUCCGGGCCAGCUUCUCACCUCAUAGGGUGUACCUUUCCCGGCUCCAGCAGCCAAUGUGCUUCGGAGCCACUCUCUGCAGACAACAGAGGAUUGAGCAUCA`, the bound/input enrichment was 0.326 ratio.
With `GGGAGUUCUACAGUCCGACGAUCGCCAGCCCUGCGCCUCGCGCCGUCGCGCAUGCGUCCUGGUCUUUCUCUAGAGUUGUAUAUAUAGAACAUCCUGGAGUCCACCAUGAACGGACAGUUGGAUCUAAGUGGGAAGCUAAUCAUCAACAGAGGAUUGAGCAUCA` the bound/input enrichment was 0.137 ratio.
`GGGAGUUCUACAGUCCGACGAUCCCGCUGCCUUCCCCAGCCGCCGCCAUGAAGCUGACCGACAGCGUGUUGCGGAGCUUCCGCGUCGCUAAGGUGUUCCGCGAAAACUCGGACAAGAUUAACUGCUUCGAUUUCAGCCCCAACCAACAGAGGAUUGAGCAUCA` gave a bound/input enrichment of 0.0763 ratio.
`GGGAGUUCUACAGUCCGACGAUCGAUUCCCUUGGAAUUCCAUUUUUGGAAACCAGUGCUAAGAACGCAACGAAUGUAGAACAGUCUUUCAUGACGAUGGCAGCUGAGAUUAAAAAGCGAAUGGGUCCUGGAGCUACAGCUGGUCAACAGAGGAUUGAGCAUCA` has a bound/input enrichment of 0.146 ratio.
`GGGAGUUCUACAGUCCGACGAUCAGUUAUGACGGUAUAAAGCUUGAGCCUGAAAAUCCCCCACCAUAUGAAGAAGCCAUGAGUGUAGCACUAAAAACAUCGGACUCAAAGGAAGAAAUUAAAGAGCCUGAAAGUUUUAAUGCACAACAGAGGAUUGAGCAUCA` gave a bound/input enrichment of 0.284 ratio.
The bound/input enrichment of `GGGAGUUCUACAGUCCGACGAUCUAAUAUAUUUUUCCUACUUGUGGGAAAAGUAUUAUAAGUUUGGUUAAAUUGUCAUGUUUAUAGUUUUUCCAAGUACAUUUGUAACUACAGCAGGCCUUCUUCGUACUGCUGCUGUUGGACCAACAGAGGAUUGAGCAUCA` is reported as 0.422 ratio.
With `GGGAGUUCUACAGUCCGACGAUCAAGACGCUUCUAUCUCUGGGAAAAGAGCAGCAGUUGGCCAUGUUCUUCUGUUUUCUAUUCCUGUCCUAAAUCAAAGAGCAUGGUUCUCAGGAAACCAGUUCCCCGGUCAAAAAAUCUUGUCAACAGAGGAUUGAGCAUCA` the bound/input enrichment was 0.186 ratio.
`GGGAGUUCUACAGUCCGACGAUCGUUAAUAUGGAGUCAGUUUUUGACUAUAGUAUAAAUUCUGUACAUGAUGAGAAAAUGGAAGAGCAAACUGAAAUUCUUCAAAAUGGCUUCAAUCCUGAAGAAGAUAAAUGCAAUAACUGUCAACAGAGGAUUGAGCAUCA` gave a bound/input enrichment of 0.292 ratio.
